Measurements pooled from the literature.
A part holds a random share of what one study measured.

Series 1 — method: RNA Bind-n-Seq; molecule type: RNA; matrix: in vitro; concentration: 365 nM; baseline: no-protein control; direction: higher = stronger binding
Target: RNA binding protein fox-1 homolog 2, RRM domain, GST-SBP tag (RBFOX2, Homo sapiens, UniProt O43251-10, residues 100-194)
Setting: natural RNA segment, single round, ends assumed
Constant ends, left off below: GGGAGUUCUACAGUCCGACGAUC … UGGAAUUCUCGGGUGCCAA
Target sequence (chain): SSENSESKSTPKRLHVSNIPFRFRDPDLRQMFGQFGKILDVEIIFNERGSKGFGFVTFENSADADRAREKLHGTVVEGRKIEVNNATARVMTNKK
Sequence | RBNS enrichment (R)
CCUCUCAGUAGGGGGCUUUUAGAGCAGUUGAAAUCUGCAGAACUGAACCUCUGAGGGCCAAAAUAGGACAUUUGGGAACAACUCCUUAACCCAUGAACUAGCUGUAACAU | 0.417
GAAGCCUGGUUUCUGGGAGAACACUGCACAGCGAUUUCUUUCCCAGGAUUUACACAACUUUAAAGGGAAGAUAAAUGAACAUCAGAUUUCUAGGUAUAGAACUAUGUUAU | 0.424
AGACAAGACCGGAUCUUGUCAUCUUACCUUUUGCUUUACAAAAAAGGCCUGUUGAAGUCAAUGCUGUCUUGCCCCUUGCUGUUUCAGCAGGUUAGACUUUGGUCUUCACU | 0.501
CUUCUAAAAUAAAAUCUCUAGUCCAGACAUAUUUGACAGUAUUGUUUGUCUGAAUGUGAAAUAUCCCCCAUUUUAUCCCAUAAAUCAUUUGUUUUCCAAUGAUGUGUAUU | 0.467
GAUAAAGAUCCCUUGGGGGGGGGGGAGUUGGAUGUUUGACUACUAGGAGAUACUAGAGGCUCAGACAGCAGGCAUGUAUCCCCAUGGGGAAUAUGUGAGGACCUGGACCG | 3.34
AAAGAAUAUUCCAUUUUCCUUUCCUUGUGGUUGAAAACCACAGUCAGUGGAGAGAUGUUUGGAAACCACAGUCAGUGGAGCCUGGGUGGUACCCAGGCUUUAGCAUUAUU | 0.417
ACUGCUCUCCUCAGGGACUGGGACAAGGUGCUGCCGCCUGCCCACAGUUUUCCCAAGGAACACGUACAAGAUCAUUUAGCCACUACUCUGCUGCCUCUCAGCCUCUGCUG | 0.524
UGUAAUGGGAAUGUUUAAGUGUUGUGUGCAAGAAAACAAAAUAAAUAUUUUGAUUUUCGUGAUUCUAUGCAUGUCUGUCUACACACUGUCCAAAUAAGCUGGUUCUGGGA | 17.3
AUGGCUUUAUUUAUGAGUGUGGCUUUGAGGAGUUGGGAAGAGGUAACCCACUUCUCUCCCAUCUUCUCCGAGCCAUGACUCAAGAAGAAAAGGGUGCUCGGACUCUCUUA | 0.187
AACUAGCUCCCUAAUGGUCUAUAAUUUUAUUUCUUUUGGCUUAAAGUGAAAAAGAAGAAAUAGAGAAUUCCAGCAGAAUUCAGUGGUUGUCUACUAUCCAUACUUCUUAU | 0.328
AAAAGAGGUAAGACUGAGACUAAAGGUGUUAUCUUCUGGUGUGCUCCUGGAAGUGUCUACCCUACAUUUGUGUCAGCUCAGGGUUGCAGUGUUGCCCAGAUGCAUUUUAC | 0.814
UGGACAGUGUUCUAUUAACUCAUUGAAUGUGUUUCCUUUGUCUUGUGUUAAUAAAUAUUGAUGCUUGAUUAUGUUUAAUUCUUAAACCUUGGGUGGAGCUGGGUGGUGUU | 0.993

Series 2 — method: RNA Bind-n-Seq; molecule type: RNA; matrix: in vitro; concentration: 200 nM; setting: whole 134-nt RNA, ends assumed; together with: 150 mM KCl; baseline: input library; direction: higher = stronger binding
Target: Fragile X messenger ribonucleoprotein 1, C-terminal low-complexity region (Fmr1, Mus musculus, UniProt P35922)
Constant ends, left off below: GGGAGUUCUACAGUCCGACGAUC … UGGAAUUCUCGGGUGUCAAGG
Sequence | log2 enrichment
UGGCCCUGGUGGCAUGCGGGGAGGAAGAGGUGGCCUCAUGGAUCGUGGUGGUCCCGGUGGAAUGUUCAGAGGUGGCCGCGGUGGAGACAG | -0.0463
UGGCCCUUCCCCUGGAGCCAUGCUGGGCCCUAGCCCGGGUCCCUCGCCGGGCUCCGCCCACAGCAUGAUGGGGCCCAGCCCAGGGCCGCC | 0.304
AAGUCCUGUGCUACACAUCGUAUGUACCGAAUCGGAAAAAGGAAAAAGGGAAAAAGGAAAGUAUUAUGUUACGCCGUUCGGAUCUGCACU | -0.703
UCCUGUGCUACACAUCGUAUGUACCGAAUCGGGUUUGGGUUUUUUUGGGAAAAAAAGGGAAAGUAUUAUGUUACGCCGUUCGGAUCUGCA | 0.029
CACAGACAACACGCACCCACACAGACACAGAGGGAAGGGGUUGGGAUGGGGACAGGGUGCACAGCAGGGCGGGGUAGGACCCCAGCAAAU | 1.14
ACCAUGCAGGUGGGCAUCUUUGGGAAGUGGGGCAAGGGGGGGAUAGGGAGGGGGGUAACACUUUGGGAACAGGUGGUCCCAGGUCGUAAA | 0.806
CAAGUCCUGUGCUACACAUCGUAUGUACCGAAUCGGGAGGGUUUUUUUGGGAGGGAAAGUAUUAUGUUACGCCGUUCGGAUCUGCACUUC | 0.797
UGGGAGGUGGAUUUUGUUUAUUUUUUUAGCUCAUUUCCAGGGGUGGGAAUUUUUUUUUAAUAUGUGUCAUGAAUAAACUUGUUUUUGAAA | 0.239
GUCCUGUGCUACACAUCGUAUGUACCGAAUCGGUUUUUGGGUUUUUGGGGUUUUUGGGAAAGUAUUAUGUUACGCCGUUCGGAUCUGCAC | -0.216
ACCAUGCAGGUGGGCAUCUUUGGGAAGUGGGGCAAGGGGGGGAUAGGGAGGGGGGUAACACUUUGGGAACAGGUGGACCCAGGUCGUUUC | 0.47
GUCCUGUGCUACACAUCGUAUGUACCGAAUCGGAAAAAAGGAAAAAAGGAAAAAAGGGAAAGUAUUAUGUUACGCCGUUCGGAUCUGCAC | -0.747
ACCAUGCAGGUGGGCAUCUUUGGGAAGUGUGGCAAGGGGGGGAUAGGGAGGGGGGUAACACUUUGGGAACAGGUGGUCCCAGGUCGUUUC | 0.974
UCCUCAAGUCCUGUGCUACACAUCGUAUGUACCGAAUCGGUGGUGGGGUGGGAAAGUAUUAUGUUACGCCGUUCGGAUCUGCACUUCCAG | 0.438
UACUAUGAAGCCUUGUGCAAAUCCCUCGACUGGCAGAUAGACGUGGACCUACUCAAUAAAAUGAAGAAGGCAAAUGAAGAUGAGUUGAAG | -0.435

Series 3 — method: protein binding microarray; molecule type: double-stranded DNA, one strand shown; matrix: in vitro; concentration: not given; baseline: not given; direction: higher = stronger binding
Target: Histone acetyltransferase KAT6A, winged helix 2, GST fusion (KAT6A, Homo sapiens, UniProt Q92794, residues 85-181)
Setting: 8-mer, flanks averaged, mean of 2 arrays, mostly near background
Target sequence (chain): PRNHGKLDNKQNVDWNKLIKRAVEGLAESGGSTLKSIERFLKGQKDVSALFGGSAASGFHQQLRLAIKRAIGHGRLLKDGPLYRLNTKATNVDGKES
Sequence | E-score
CCTCTCCC | -0.00203
GACGTTGA | -0.121
AATAAGCT | 0.0745
GCGCTCGA | 0.00185
GAGGTCGC | -0.0648
TATGGCCA | -0.223
AACCGTCT | -0.0401
CTGCTTAA | 0.0969
AACCTGCT | 0.125
TCGCTCAA | 0.0083
ACAAAGAT | -0.0192
CATAGAGG | 0.0292
CATTTCGA | -0.0825
CATGAGAG | -0.0484
AGAACACG | -0.0769
AGTCGTCG | -0.242
ATCGCTGG | -0.019
AGGCTGGA | -0.0441
CACTAATC | -0.024
CCCTAAAC | -0.163
GTGGCCGA | 0.11
CCCTGACA | -0.074
GTTGGCTA | 0.013

Series 4 — method: protein-binding microarray; molecule type: double-stranded DNA, one strand shown; matrix: in vitro; concentration: 250 nM; setting: 60-bp whole probe; together with: salmon DNA 0.4 mg/ml; baseline: random background probes; direction: higher = stronger binding; constant ends, left off below: GCCTAGCAC … GTCTTGATTCGCTTGACGCTGCTG
Target: Interferon regulatory factor 7, full length, phosphomimetic (IRF7, Homo sapiens, UniProt Q92985, residues 1-503, S101K/S471D/S472D/S475D/S476D/S477D/S483D/S484D/S487D)
UniProt Q92985, sequence (whole entry, unmodified, looked up): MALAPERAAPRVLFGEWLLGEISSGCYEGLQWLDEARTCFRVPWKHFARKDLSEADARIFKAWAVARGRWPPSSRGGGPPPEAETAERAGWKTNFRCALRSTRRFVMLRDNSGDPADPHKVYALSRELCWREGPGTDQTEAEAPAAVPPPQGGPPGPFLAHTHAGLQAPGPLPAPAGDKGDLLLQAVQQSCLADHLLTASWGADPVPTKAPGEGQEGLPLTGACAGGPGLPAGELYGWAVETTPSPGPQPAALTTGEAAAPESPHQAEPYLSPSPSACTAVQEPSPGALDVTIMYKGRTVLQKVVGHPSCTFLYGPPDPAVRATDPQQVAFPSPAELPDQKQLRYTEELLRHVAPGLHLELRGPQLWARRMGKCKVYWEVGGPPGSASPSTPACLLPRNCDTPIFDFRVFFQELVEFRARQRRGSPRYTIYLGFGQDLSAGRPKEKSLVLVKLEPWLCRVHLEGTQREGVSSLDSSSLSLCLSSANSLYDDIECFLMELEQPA
Sequence | log fluorescence
CCAGGGCTCTAGAGAAATAGGTGCTAG | -0.372 z-score
GACGGACAGCTTCTCCTGACGTGCTAG | -0.715 z-score
GACGGACTGCTGCTGCTGACGTGCTAG | -1.1 z-score
GACGGACGGGGGTATCGGGACGTGCTA | 1.15 z-score
GACGATATAAGTTTCGAGACGTGCTAG | 4.37 z-score
TTAGATCACAGACTGGATTAGTGCTAG | -0.0918 z-score
TTAGGACTGGGACTGGGCTAGTGCTAG | -0.342 z-score
ATAGATATCAGTATCGATTAGTGCTAG | 0.571 z-score
TTCGAACTGGGGACTGGATTAGTGCTA | -0.132 z-score
TTAGGACTGGGGTTTCGATTAGTGCTA | 5.5 z-score
GACGATCTCAGACTGGAGCCGTGCTAG | -0.224 z-score
TCATCATTGCCTATTTTACTGTGCTAG | 0.381 z-score
TCATTTTTCTAGTCCAGACTGTGCTAG | 1.42 z-score
TCACCTACAGGTTCTCTGACTGTGCTA | -0.706 z-score
GCCATTGTGGGTCTTGCAGAGTGCTAG | -0.69 z-score
CTTTCTATGTCTGTTTTTGCGTGCTAG | 1.29 z-score
TTAGGTTTCGACGTTCGGTTAGTGCTA | 4.02 z-score
GACGGTATCAGTTTCGGGACGTGCTAG | 3.3 z-score
GACGATTTCAGTCTCGACACGTGCTAG | 0.302 z-score
TTCGGTATCGGGTTTCGGTTAGTGCTA | 6.85 z-score
GACGGACTGGGGGATCGGGACGTGCTA | 0.0753 z-score
TTCGGACTGGGACTGGGTTAGTGCTAG | -0.242 z-score
CGTAAGCAAAAATGATTGGTGTGCTAG | -0.151 z-score

For quick reference, copied from above (series 2):
Sequence | log2 enrichment
UCCUGUGCUACACAUCGUAUGUACCGAAUCGGGUUUGGGUUUUUUUGGGAAAAAAAGGGAAAGUAUUAUGUUACGCCGUUCGGAUCUGCA | 0.029
AAGUCCUGUGCUACACAUCGUAUGUACCGAAUCGGAAAAAGGAAAAAGGGAAAAAGGAAAGUAUUAUGUUACGCCGUUCGGAUCUGCACU | -0.703
UGGCCCUUCCCCUGGAGCCAUGCUGGGCCCUAGCCCGGGUCCCUCGCCGGGCUCCGCCCACAGCAUGAUGGGGCCCAGCCCAGGGCCGCC | 0.304
CAAGUCCUGUGCUACACAUCGUAUGUACCGAAUCGGGAGGGUUUUUUUGGGAGGGAAAGUAUUAUGUUACGCCGUUCGGAUCUGCACUUC | 0.797
ACCAUGCAGGUGGGCAUCUUUGGGAAGUGGGGCAAGGGGGGGAUAGGGAGGGGGGUAACACUUUGGGAACAGGUGGUCCCAGGUCGUAAA | 0.806
UGGGAGGUGGAUUUUGUUUAUUUUUUUAGCUCAUUUCCAGGGGUGGGAAUUUUUUUUUAAUAUGUGUCAUGAAUAAACUUGUUUUUGAAA | 0.239
ACCAUGCAGGUGGGCAUCUUUGGGAAGUGGGGCAAGGGGGGGAUAGGGAGGGGGGUAACACUUUGGGAACAGGUGGACCCAGGUCGUUUC | 0.47
CACAGACAACACGCACCCACACAGACACAGAGGGAAGGGGUUGGGAUGGGGACAGGGUGCACAGCAGGGCGGGGUAGGACCCCAGCAAAU | 1.14
